Experimental data pooled from the literature.
Each line is one published result; not all experiments were run side by side. ± gives the spread as reported. In brackets after ≈: the same amount, converted by molar mass.

With `CCCC[C@H](NC(C)=O)C(=O)N[C@H]1CCC(=O)NC[C@@H](C(=O)N[C@@H](Cc2c[nH]c3ccccc23)C(N)=O)NC(=O)[C@H](CCCNC(=N)N)NC(=O)[C@@H](Cc2ccccc2)NC(=O)[C@H](Cc2c[nH]cn2)NC1=O` the Cmax was 1000 ng/mL (female rat, plasma; subcutaneous, 5 mg/kg/day, multiple doses, once daily).
`COc1ccc2cc3[n+](cc2c1OC)CCc1cc2c(cc1-3)OCO2` has a measured concentration of 30.7 ± 1.6 ng/mL (rat plasma QC sample; 32 ng/mL nominal, 24 h, medium QC level autosampler stability).
The HPLC retention of `CC(C)C[C@H](NC(=O)[C@H](CC(C)C)NC(=O)[C@@H](Cc1c[nH]c2ccccc12)NC(=O)[C@@H](NC(=O)[C@@H](Cc1c[nH]c2ccccc12)NC(=O)[C@@H](N)CCCCN)[C@@H](c1ccccc1)c1c[nH]c2ccccc12)C(N)=O` is reported as 58.7 %B (RP-HPLC Jupiter Proteo; acetonitrile/water TFA gradient).
`O=C1C=Cc2c(c(-c3ccco3)cn2S(=O)(=O)c2ccccc2)C1=O` gave a kinetic solubility of 31.2 µM (≈ 11 µg/mL) (LC-MS; PBS, 20% DMSO; 2 h).
`Nc1ccn([C@@H]2O[C@H](CO)[C@@H](O)C2(F)F)c(=O)n1` has a measured concentration of 10.3 ± 1 ng/mL (THU-treated rat plasma; 12.00 ng/mL, 1 h, 20 °C, bench-top stability, low QC).
`Cn1c(-c2ccc(C(N)=O)cc2F)nnc1C(C)(C)Oc1c(F)cc(Cl)cc1F`: “Cmax range over subjects” 155 to 304 ng/mL (young non-Japanese adults, plasma; oral, 20 mg single dose, day 1, high-dose multiple-dose study).
For `CNCc1ccc(-c2[nH]c3cc(F)cc4c3c2CCNC4=O)cc1`, “volume of distribution” read 401 L (human cancer patients, plasma; intravenous, 4 mg/m2, day 1, with: temozolomide 100).
Under “hepatocyte vacuolization score”, `CN(C)C(=N)N=C(N)N` is recorded as 0 (Sprague-Dawley rat, male, liver; oral, 100 mg/kg, 6 h, single low dose; direction not given).
With `CCCCC1(CCCC)CN(c2ccccc2)c2cc(SC)c(OCC(=O)N[C@@H](C(=O)NCC(=O)O)c3ccccc3)cc2S(=O)(=O)C1` the AUC(0-t) was 0.314 ng·h/mL (human, plasma; oral, 2.5 mg once daily, day 1, geometric mean).
`NC(=O)c1[nH]c2ccc(Cl)cc2c1S(=O)(=O)c1ccccc1` has a solubility of 137 µg/mL (≈ 409 µM) (1% w/v cremophor in water; 120 h, ambient).
For `CS(=O)(=O)n1cc2c(n1)CN([C@H]1CO[C@H](c3cc(F)ccc3F)[C@@H](N)C1)C2`, “concentration at 168 h” read 32.8 nM (healthy male human, plasma; oral, 50 mg once weekly, day 15, fasted, geometric mean).
Under “AUC(0-24) at steady state”, `O=C(c1ccc(F)c(F)c1Nc1ccc(I)cc1F)N1CC(O)([C@@H]2CCCCN2)C1` is recorded as 2560 ng·h/mL (human, dose escalation, plasma; oral, 1.0 mg/kg, geometric mean).
`C[C@](N)(Cc1ccc(O)c(O)c1)C(=O)O` gave a solubility of 244 µg/mL (≈ 1150 µM) (supercritical carbon dioxide; 5 h, 343 K, 21 MPa, density 678.9 kg/m3).
`CN1CC[C@@H](NC(=O)Nc2ccc(C#N)cc2)C[C@@H]1c1nc2ccccc2[nH]1` gave an unbound Cmax of 73.6 ng/mL (human, moderate hepatic impairment, fasted, plasma; oral, 100 mg single dose, geometric mean, fu × total).
The clearance of `Cc1ccc(NC(=O)c2ccc(CN3CCNCC3)cc2)cc1Nc1nccc(-c2cccnc2)n1` is reported as 22.8 L/h (human patients; oral, 400 mg/day of imatinib, day 10 of cycle 1).
`Cn1c(=O)c2c(ncn2Cc2nnc(SCC(=O)Nc3ccccc3)n2-c2ccccc2)n(C)c1=O` gave a haemolysis of 11.7% (bovine erythrocytes; 1 mg/mL, 30 min, pH 7.4, 37 °C).
`Cc1nc2cccc(OCC(C)(C)C(=O)NC(C)C)c2c(N)c1C(=O)O` gave an AUC(0-t) of 176 ng·h/mL (male Sprague-Dawley rat, plasma; oral, 100 mg/kg, single dose).
`CC(C)C[C@@H]1NC(=O)[C@H](C)NC(=O)[C@H](Cc2ccccc2)NCc2ccc([nH]2)CNC1=O` gave a Papp of 0.0191 ×10⁻⁶ cm/s (PAMPA; 100 µM, 17 h, pH 6.4).
`CC(C)C[C@H](NC(=O)[C@H](CCCNC(=N)N)NC(=O)[C@H](CC(N)=O)NC(=O)[C@H](CC(=O)O)NC(=O)[C@H](CCCNC(=N)N)NC(=O)CNC(=O)CNC(=O)CNC(=S)Nc1ccc(C[C@H]2CN(CC(=O)O)CCN(CC(=O)O)CCN2CC(=O)O)cc1)C(=O)N[C@@H](CC(N)=O)C(=O)N[C@H](C(=O)NCC(=O)NCC(=O)N[C@H](C(=O)N[C@@H](Cc1ccc(O)cc1)C(=O)N[C@@H](Cc1ccccc1)C(=O)N[C@@H](CC(C)C)C(=O)N[C@H](C(=O)N[C@H](C(=O)N[C@@H](CCCNC(=N)N)C(=O)N[C@@H](CCC(N)=O)C(=O)O)[C@@H](C)O)[C@@H](C)O)[C@@H](C)O)C(C)C`: “HPLC retention time” 13.5 min (reverse-phase HPLC).
`COc1cccc(-c2ccc(NC(=O)C3=C(C(=O)O)CCC3)c(F)c2)c1`: “AUC(0-24) accumulation ratio” 2.49 (male healthy human, plasma; oral, 50 mg daily, day 13-14, not pre-dosed; baseline: day 0-1).
`COc1ccc(-c2oc3c(OC)c(OC)c(OC)c(O)c3c(=O)c2OC)cc1OC` — result for “tissue to peel content ratio”: 1.01% (C57BL/6 mouse, male, colon; oral, 1% w/w in diet, 6 weeks, orange peel extract diet; baseline: content in orange peel).
With `OC[C@H]1O[C@@H](c2ccc(F)c(Cc3cc4ccccc4s3)c2)[C@H](O)[C@@H](O)[C@@H]1O` the tissue/plasma ratio was 1090 ± 456 (Wistar rat, male, kidney; oral, dose not given, 8 h; baseline: kidney over plasma concentration).
For `Cc1cc(C)c(/C=C2\C(=O)Nc3ccccc32)[nH]1`, “right ventricular systolic pressure” read 64.9 ± 8.4 mmHg (male Sprague-Dawley rat, hypoxic pulmonary hypertension; subcutaneous, 20 mg/kg, 28 days post-hypoxia, 3 weeks hypoxia).
`Clc1ccc(Nc2nnc(Cc3ccncc3)c3ccccc23)cc1` gave an intratumoral concentration of 178 nM (MALDI-MSI; female Balb/c mouse, C26 tumor, subcutaneous C26 tumor; oral, 100 mg/kg for two weeks, 2 h).
`COc1cc(OC)c(/C=C/S(=O)(=O)Cc2ccc(OC)c(NCC(=O)O)c2)c(OC)c1` gave a Vss/F of 315 ± 285 L (cancer patients, phase I, plasma; oral, 560 mg twice daily, day 1 cycle 1).
Under “deviation from nominal”, `O=C(O)[C@H](c1ccccc1Cl)N1CCc2sccc2C1` is recorded as -1% (HPLC-MS/MS; feline EDTA plasma; 24 h, -20 °C, storage stability).
For `C[C@H](Cn1cnc2c(N)ncnc21)OCP(=O)(O)O`, the clearance increase was 12% (population PK model, refers to: tenofovir; human, HIV patients, plasma; oral, tenofovir alafenamide dosed, Black and Hispanic patients; baseline: White and Asian patients).
`CC(=O)O[C@H]1C(=O)[C@@]2(C)[C@H]([C@H](OC(=O)c3ccccc3)[C@]3(O)C[C@H](OC(=O)[C@H](O)[C@@H](NC(=O)c4ccccc4)c4ccccc4)C(C)=C1C3(C)C)[C@]1(OC(C)=O)CO[C@@H]1C[C@@H]2O` — result for “volume of distribution at steady state”: 80.9 ± 16.6 L (non-compartmental; human patients, plasma; intravenous, 200 mg/m^2, with: lenvatinib 6 mg twice daily).
For `CC[C@H](C)[C@@H]1NC(=O)[C@H](Cc2ccc(O)cc2)NC(=O)[C@@H](N)CSSC[C@@H](C(=O)N2CCC[C@H]2C(=O)N[C@@H](CC(C)C)C(=O)NCC(N)=O)NC(=O)[C@H](CC(N)=O)NC(=O)[C@H](CCC(N)=O)NC1=O`, “AUC above baseline” read 134 ± 84 pg·30 min/sample (microdialysis, radioimmunoassay; C57BL/6J male mice, wild type, hippocampus extracellular fluid; intraperitoneal, 12 µg total, incremental area over baseline).
`CNCc1ccc(-c2[nH]c3cc(F)cc4c3c2CCNC4=O)cc1` has an AUC(0-12 h) of 14700 ng·h/mL (human, plasma; oral, 600 mg twice daily, steady state, median).
For `CS(=O)(=O)n1cc2c(n1)CN([C@@H]1C[C@H](N)[C@@H](c3cc(F)ccc3F)O[C@@H]1C(F)(F)F)C2`, the Ctrough was 26.6 ± 13.1 ng/mL (human, plasma; oral, 50 mg, 1008 h after first dose, multiple dose).
For `CN(C)C(=O)c1cc2cnc(Nc3ccc(N4CCNCC4)cn3)nc2n1C1CCCC1`, the AUC(0-24h) was 55100 ng·h/mL (Japanese cancer patients, plasma; oral, 600 mg, steady state, no proton pump inhibitor, geometric mean).
`CC(C)=CCC[C@](C)(O[C@@H]1O[C@H](CO)[C@@H](O)[C@H](O)[C@H]1O)[C@H]1CC[C@]2(C)[C@@H]1[C@H](O)C[C@@H]1[C@@]3(C)CC[C@H](O[C@@H]4O[C@H](CO)[C@@H](O)[C@H](O)[C@H]4O[C@@H]4O[C@H](CO)[C@@H](O)[C@H](O)[C@H]4O)C(C)(C)[C@@H]3CC[C@]12C` — result for “post-preparative stability accuracy”: 96.8 ± 8% (rat, extracted plasma QC samples; 1.0 µg/mL, 24 h, 15 °C, autosampler).
For `C[C@]12CC[C@@H]3c4ccc(O)cc4CC[C@H]3[C@@H]1C[C@@H](O)[C@@H]2O`, “mean serum concentration” read 0 ng/mL (GC-MS; breast cancer women on NSAI, serum; vaginal, 0.03 mg, 24 h, day 0).
Under “minimum trough plasma concentration”, `CCN(CC)CCNC(=O)c1c(C)[nH]c(/C=C2\C(=O)Nc3ccc(F)cc32)c1C` is recorded as 23.1 ng/mL (human, plasma; oral, 20 mg/m2, day 7).
`CC[C@H](C)[C@H](NC(=O)[C@H](Cc1ccccc1)NC(=O)[C@H](CCC(=O)O)NC(=O)[C@H](CCCCNC(=O)COCCOCCNC(=O)COCCOCCNC(=O)CC[C@H](NC(=O)CCCCCCCCCCCCCCCCC(=O)O)C(=O)O)NC(=O)[C@H](C)NC(=O)[C@H](C)NC(=O)[C@H](CCC(N)=O)NC(=O)CNC(=O)[C@H](CCC(=O)O)NC(=O)[C@H](CC(C)C)NC(=O)[C@H](Cc1ccc(O)cc1)NC(=O)[C@H](CO)NC(=O)[C@H](CO)NC(=O)[C@@H](NC(=O)[C@H](CC(=O)O)NC(=O)[C@H](CO)NC(=O)[C@@H](NC(=O)[C@H](Cc1ccccc1)NC(=O)[C@@H](NC(=O)CNC(=O)[C@H](CCC(=O)O)NC(=O)C(C)(C)NC(=O)[C@@H](N)Cc1cnc[nH]1)[C@@H](C)O)[C@@H](C)O)C(C)C)C(=O)N[C@@H](C)C(=O)N[C@@H](Cc1c[nH]c2ccccc12)C(=O)N[C@@H](CC(C)C)C(=O)N[C@H](C(=O)N[C@@H](CCCNC(=N)N)C(=O)NCC(=O)N[C@@H](CCCNC(=N)N)C(=O)NCC(=O)O)C(C)C` — result for “average steady-state concentration”: 21 nmol/L (human highest body weight; 1.0 mg once weekly, 116.8-198.3 kg).

Some of these lines once more:
The HPLC retention of `CC(C)C[C@H](NC(=O)[C@H](CC(C)C)NC(=O)[C@@H](Cc1c[nH]c2ccccc12)NC(=O)[C@@H](NC(=O)[C@@H](Cc1c[nH]c2ccccc12)NC(=O)[C@@H](N)CCCCN)[C@@H](c1ccccc1)c1c[nH]c2ccccc12)C(N)=O` is reported as 58.7 %B (RP-HPLC Jupiter Proteo; acetonitrile/water TFA gradient).
`O=C1C=Cc2c(c(-c3ccco3)cn2S(=O)(=O)c2ccccc2)C1=O` gave a kinetic solubility of 31.2 µM (≈ 11 µg/mL) (LC-MS; PBS, 20% DMSO; 2 h).
`Nc1ccn([C@@H]2O[C@H](CO)[C@@H](O)C2(F)F)c(=O)n1` has a measured concentration of 10.3 ± 1 ng/mL (THU-treated rat plasma; 12.00 ng/mL, 1 h, 20 °C, bench-top stability, low QC).
